Measurements from different studies.
Parts stem from different laboratories: compare values within a part only. Changes are numbered by the printed parent chain.

Series 1 — target: JUN, bZIP domain (human); technique: DHFR protein complementation; sample: yeast; relative to: wild-type JUN-FOS pair; direction: higher = stronger binding; measurement: binding fitness
Setting: single substitutions, most at no-binding floor
Starting sequence: JUN, bZIP domain (human); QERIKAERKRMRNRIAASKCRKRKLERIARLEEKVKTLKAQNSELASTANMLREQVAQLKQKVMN; partner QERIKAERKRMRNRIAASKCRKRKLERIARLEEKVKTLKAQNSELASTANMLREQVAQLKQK
R30I: -0.311 natural log
T37E: -0.0196 natural log
E44N: -0.528 natural log
A49G: -0.524 natural log
A57E: -0.0219 natural log
K36D: -0.432 natural log
K34D: -0.29 natural log
K39D: -0.569 natural log

Series 2 — technique: RNA Bind-n-Seq; molecule type: RNA; sample: in vitro; tested at: 1 µM; setting: whole 134-nt RNA, ends assumed; added: 150 mM KCl; relative to: input library; direction: higher = stronger binding; measurement: log2 enrichment
Target: Ras GTPase-activating protein-binding protein 1, RRM domain (G3BP1, Homo sapiens, UniProt Q13283)
UniProt Q13283, sequence (whole entry, looked up): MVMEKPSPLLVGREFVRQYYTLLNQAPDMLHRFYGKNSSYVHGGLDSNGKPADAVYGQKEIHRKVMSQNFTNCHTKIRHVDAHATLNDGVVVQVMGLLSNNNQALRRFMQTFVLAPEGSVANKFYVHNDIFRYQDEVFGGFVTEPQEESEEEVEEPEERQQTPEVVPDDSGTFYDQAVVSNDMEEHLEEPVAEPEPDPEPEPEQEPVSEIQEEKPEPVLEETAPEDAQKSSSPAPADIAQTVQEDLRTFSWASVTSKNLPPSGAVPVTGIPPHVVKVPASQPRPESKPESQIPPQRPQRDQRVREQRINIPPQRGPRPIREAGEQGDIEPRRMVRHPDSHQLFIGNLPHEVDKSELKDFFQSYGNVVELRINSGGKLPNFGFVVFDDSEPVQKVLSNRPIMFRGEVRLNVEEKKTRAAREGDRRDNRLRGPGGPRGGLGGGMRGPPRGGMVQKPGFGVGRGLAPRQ
Constant ends, left off below: GGGAGUUCUACAGUCCGACGAUC … UGGAAUUCUCGGGUGUCAAGG
UCCUCAAGUCCUGUGCUACACAUCGUAUGUACCGAAUCGGGAGGAGGGAGGGAAAGUAUUAUGUUACGCCGUUCGGAUCUGCACUUCCAG: 0.272
UACCUUUAGAGGAGGAUCUGAUGGAUAUGGCAGUGGACGUGGAUUUGGGGAUGGCUAUAAUGGGUAUGGAGGAGGACCUGGAGGUGGCAA: -0.784
UAACUUUAGAGGAGGAUCUGAUGGAUAUGGCAGUGGACGUGGAUUUGGGGAUGGCUAUAAUGGGUACGGAGGAGGACCUGGAGGUGGCAA: -0.302
UCCUCAAGUCCUGUGCUACACAUCGUAUGUACCGAAUCGGGCGGCGGGCGGGAAAGUAUUAUGUUACGCCGUUCGGAUCUGCACUUCCAG: -0.0214
CAAGUCCUGUGCUACACAUCGUAUGUACCGAAUCGGAAAGGAAAAAAAGGUUUGGAAAGUAUUAUGUUACGCCGUUCGGAUCUGCACUUC: -0.23
UAACUUUAGAGGAGGAUCUGAUGGAUAUGGCAGUGGACGUGGAUUUGGGGAUGGCUAUAAUGGGUAUGGAGGAGGACGUGGAGGUGGCAA: -0.296
CCUGUGCUACACAUCGUAUGUACCGAAUCAAACCCCCCCAAACCCCCCCAAACCCCCAAAAAAGUAUUAUGUUACGCCGUUCGGAUCUGC: -0.221
CACAGACAACACGCACCCACACAGACACAGAGGGAAGGGGUUGGGAUGGGGACAAAGUGCACAGCAGGGCGGGGUAGGACCCCAGCCCCU: -0.142

Further values, each from its own experiment
P1: viral docking peptide; KGVKRKLFAEDSS; partner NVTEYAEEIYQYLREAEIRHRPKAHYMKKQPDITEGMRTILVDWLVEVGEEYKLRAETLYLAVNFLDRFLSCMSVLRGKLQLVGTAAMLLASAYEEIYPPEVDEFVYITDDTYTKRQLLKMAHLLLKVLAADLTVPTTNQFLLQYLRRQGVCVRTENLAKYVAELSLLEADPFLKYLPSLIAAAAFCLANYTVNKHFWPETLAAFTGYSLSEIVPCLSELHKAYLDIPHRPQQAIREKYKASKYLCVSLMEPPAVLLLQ
PRPF38A (Homo sapiens, UniProt Q8NAV1)
cross-linked residues (ZMAT2 (Homo sapiens, UniProt Q96NC0); cross-linking MS; cell fractions; added: DSSO): K7 to K102

P1 K6S
normalised enrichment score (CCNA1, cyclin fold, Cln2 fusion (human); yeast growth competition, sequencing; yeast; weak parent motif; relative to: not given, higher = stronger binding): 0.819

EPRS1 (Homo sapiens, UniProt P07814)
cross-linked residues (KHDRBS1 (Homo sapiens, UniProt Q07666); cross-linking MS; cell fractions; added: DSSO): S1136 to K194

HSP90B1 (Homo sapiens, UniProt P14625)
cross-linked residues (CHID1 (Homo sapiens, UniProt Q9BWS9); cross-linking MS; cell fractions; added: DSSO): K597 to K361
